Measurements of several laboratories.
Parts stem from different laboratories: compare values within a part only. Values joined by “and” are separate records of one study, mostly repeats; a detail may differ.
Chain of UniProt O14578 (whole entry, looked up): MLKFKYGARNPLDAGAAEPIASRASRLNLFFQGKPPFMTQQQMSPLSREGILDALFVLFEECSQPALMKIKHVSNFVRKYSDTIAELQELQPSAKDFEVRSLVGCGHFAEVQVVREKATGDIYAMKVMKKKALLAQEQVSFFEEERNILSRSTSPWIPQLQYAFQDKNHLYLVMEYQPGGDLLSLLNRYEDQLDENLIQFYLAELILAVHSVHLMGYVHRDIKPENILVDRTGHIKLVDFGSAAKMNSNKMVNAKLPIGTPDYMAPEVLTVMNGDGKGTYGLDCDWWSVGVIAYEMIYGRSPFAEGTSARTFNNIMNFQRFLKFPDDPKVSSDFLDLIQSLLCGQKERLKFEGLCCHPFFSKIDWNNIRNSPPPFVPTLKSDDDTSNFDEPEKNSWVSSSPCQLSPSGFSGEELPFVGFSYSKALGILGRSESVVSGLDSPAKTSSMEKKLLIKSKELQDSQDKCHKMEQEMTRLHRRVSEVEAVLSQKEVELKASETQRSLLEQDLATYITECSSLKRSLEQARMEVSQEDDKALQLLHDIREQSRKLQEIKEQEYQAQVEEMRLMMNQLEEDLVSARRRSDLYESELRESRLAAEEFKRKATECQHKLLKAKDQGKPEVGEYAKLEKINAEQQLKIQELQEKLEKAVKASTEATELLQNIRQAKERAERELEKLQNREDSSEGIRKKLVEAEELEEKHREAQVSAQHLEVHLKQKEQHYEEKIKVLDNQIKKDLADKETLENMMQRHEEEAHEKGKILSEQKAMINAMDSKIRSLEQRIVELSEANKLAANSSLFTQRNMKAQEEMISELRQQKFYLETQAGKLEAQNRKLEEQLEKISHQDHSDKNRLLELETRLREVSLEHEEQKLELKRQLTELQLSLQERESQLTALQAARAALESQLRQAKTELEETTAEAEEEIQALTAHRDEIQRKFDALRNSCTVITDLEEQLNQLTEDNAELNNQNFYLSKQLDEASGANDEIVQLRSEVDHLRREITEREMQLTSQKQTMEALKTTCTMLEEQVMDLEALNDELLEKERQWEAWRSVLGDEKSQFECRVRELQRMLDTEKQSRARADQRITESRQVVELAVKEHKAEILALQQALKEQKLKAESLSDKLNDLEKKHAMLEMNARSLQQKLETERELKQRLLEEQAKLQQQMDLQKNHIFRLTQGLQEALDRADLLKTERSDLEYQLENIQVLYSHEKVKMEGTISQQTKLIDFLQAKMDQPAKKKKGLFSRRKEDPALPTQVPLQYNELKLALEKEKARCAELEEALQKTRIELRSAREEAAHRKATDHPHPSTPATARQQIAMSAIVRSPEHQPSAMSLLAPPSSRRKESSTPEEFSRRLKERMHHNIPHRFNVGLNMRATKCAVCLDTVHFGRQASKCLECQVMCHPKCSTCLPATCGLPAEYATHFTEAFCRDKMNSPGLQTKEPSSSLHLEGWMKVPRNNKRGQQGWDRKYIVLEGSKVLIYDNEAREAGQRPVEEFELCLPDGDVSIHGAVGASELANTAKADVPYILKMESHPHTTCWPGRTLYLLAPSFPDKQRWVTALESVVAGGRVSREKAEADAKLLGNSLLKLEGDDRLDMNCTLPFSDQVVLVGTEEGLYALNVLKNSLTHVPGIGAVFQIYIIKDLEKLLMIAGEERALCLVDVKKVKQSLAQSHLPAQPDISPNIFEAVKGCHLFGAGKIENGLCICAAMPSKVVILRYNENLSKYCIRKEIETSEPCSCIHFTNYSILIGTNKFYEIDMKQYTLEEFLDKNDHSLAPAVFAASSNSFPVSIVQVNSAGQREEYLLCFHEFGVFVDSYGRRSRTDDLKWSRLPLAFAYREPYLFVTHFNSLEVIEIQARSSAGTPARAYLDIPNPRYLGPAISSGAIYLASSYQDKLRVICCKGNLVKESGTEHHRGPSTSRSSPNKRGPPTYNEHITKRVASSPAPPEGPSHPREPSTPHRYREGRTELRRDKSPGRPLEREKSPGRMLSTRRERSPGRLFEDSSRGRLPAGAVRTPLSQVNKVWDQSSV
Chain of UniProt Q07912 (whole entry, looked up): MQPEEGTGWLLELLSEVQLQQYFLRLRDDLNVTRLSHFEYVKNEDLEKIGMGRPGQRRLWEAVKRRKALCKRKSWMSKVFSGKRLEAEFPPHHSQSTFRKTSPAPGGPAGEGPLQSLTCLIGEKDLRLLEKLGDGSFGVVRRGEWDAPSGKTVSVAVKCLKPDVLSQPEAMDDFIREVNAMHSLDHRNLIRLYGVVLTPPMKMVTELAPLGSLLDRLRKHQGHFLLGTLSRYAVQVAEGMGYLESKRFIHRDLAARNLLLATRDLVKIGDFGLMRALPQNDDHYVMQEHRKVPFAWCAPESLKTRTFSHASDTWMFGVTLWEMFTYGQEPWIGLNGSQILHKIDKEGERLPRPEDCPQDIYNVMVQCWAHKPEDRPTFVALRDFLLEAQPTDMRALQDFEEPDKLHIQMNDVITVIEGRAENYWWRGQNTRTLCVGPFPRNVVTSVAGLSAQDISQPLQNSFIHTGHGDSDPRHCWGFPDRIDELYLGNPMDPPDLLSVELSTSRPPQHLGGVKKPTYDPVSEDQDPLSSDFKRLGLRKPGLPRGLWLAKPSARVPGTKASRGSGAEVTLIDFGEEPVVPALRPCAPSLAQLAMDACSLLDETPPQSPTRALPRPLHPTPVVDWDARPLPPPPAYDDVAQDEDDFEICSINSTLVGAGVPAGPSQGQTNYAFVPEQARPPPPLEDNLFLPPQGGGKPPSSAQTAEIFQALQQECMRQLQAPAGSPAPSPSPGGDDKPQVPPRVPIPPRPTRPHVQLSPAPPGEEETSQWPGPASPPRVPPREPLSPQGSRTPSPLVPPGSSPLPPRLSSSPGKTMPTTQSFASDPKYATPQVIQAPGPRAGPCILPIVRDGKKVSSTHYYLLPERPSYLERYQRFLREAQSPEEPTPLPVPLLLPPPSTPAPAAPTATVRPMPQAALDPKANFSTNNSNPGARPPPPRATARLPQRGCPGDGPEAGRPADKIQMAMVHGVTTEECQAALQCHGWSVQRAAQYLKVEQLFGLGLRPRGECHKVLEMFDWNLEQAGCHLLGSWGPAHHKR
Chain of UniProt Q7L7X3 (whole entry, looked up): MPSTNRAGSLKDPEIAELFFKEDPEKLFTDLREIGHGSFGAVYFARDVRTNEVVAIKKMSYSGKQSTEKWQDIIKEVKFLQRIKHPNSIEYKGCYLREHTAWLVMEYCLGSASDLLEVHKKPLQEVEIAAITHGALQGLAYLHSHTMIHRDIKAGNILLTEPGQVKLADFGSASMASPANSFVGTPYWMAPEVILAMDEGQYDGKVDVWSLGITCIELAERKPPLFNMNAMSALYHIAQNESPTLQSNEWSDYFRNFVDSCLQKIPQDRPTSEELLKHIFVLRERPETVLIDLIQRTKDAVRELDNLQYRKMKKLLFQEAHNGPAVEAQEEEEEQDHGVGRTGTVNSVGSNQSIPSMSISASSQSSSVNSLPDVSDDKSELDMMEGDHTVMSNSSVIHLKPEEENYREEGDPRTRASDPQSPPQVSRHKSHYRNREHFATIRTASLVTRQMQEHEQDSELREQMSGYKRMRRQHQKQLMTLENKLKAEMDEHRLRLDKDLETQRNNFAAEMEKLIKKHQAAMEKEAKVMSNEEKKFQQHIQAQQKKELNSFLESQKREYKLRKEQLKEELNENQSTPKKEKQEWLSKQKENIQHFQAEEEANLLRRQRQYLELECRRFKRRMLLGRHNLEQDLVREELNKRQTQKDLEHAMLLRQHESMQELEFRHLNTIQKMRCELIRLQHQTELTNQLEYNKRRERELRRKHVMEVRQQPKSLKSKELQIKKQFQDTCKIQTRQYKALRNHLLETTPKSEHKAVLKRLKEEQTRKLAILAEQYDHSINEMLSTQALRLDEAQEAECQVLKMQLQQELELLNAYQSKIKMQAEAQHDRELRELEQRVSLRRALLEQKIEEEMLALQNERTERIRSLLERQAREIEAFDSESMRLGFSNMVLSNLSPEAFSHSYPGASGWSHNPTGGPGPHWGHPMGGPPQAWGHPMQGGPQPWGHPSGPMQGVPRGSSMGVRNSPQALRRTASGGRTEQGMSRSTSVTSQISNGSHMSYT
Chain of UniProt P51813 (whole entry, looked up): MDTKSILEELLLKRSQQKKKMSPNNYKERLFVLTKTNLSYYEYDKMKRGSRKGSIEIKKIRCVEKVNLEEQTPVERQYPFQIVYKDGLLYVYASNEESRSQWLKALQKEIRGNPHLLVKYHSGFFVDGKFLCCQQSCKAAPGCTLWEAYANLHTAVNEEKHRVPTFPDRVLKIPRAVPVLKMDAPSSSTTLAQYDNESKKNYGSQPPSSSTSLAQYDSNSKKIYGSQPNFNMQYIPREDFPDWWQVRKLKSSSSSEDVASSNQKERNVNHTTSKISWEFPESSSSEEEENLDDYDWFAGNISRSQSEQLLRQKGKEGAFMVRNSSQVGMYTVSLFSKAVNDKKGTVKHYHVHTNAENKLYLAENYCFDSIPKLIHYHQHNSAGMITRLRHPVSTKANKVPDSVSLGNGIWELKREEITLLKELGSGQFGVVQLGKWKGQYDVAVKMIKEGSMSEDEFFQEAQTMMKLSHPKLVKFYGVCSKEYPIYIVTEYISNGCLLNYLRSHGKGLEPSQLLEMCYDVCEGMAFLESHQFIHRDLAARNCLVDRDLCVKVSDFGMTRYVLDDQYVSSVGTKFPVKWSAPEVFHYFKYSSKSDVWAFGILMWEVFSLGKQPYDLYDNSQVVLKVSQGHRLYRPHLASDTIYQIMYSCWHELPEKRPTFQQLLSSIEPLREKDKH

Series 1 — cell line: L929; observed: caspase activity; method: Ac-DEVD-pNA absorbance; direction: higher = more activity
Compound: CC(C)S(=O)(=O)c1ccc2nccc(Nc3ccc4scnc4c3)c2c1
concentration	time	caspase-3 activity
5 µM	3 h	0.067 a.u. and 0.066 a.u. and 0.166 a.u. and 0.065 a.u. and 0.169 a.u.
10 µM	0 h	0.007 a.u. and 0.0075 a.u. and 0.019 a.u. and 0.011 a.u. and 0.015 a.u.
5 µM	1 h	0.012 a.u. and 0.0065 a.u. and 0.016 a.u. and 0.029 a.u.

Series 2 — observed: cell-free assay; method: competition with immobilised ligand; concentration: 1 µM
SMILES: CC1=C(C#N)C(c2ccc3c(c2)c(NC(=O)c2ccccc2C)nn3C)C(C#N)=C(C)N1
target	remaining binding
CIT (Homo sapiens, UniProt O14578)	55%
STK38 (Homo sapiens, UniProt Q15208)	96%
TNK2 (Homo sapiens, UniProt Q07912)	86%
TAOK1 (Homo sapiens, UniProt Q7L7X3)	100%
HIPK2 (Homo sapiens, UniProt Q9H2X6)	73%
ERBB3 (Homo sapiens, UniProt P21860)	100%
EGFR (Homo sapiens, UniProt P00533, del752-759)	88%
BMX (Homo sapiens, UniProt P51813)	85%

Series 3 — cell line: mouse MPNST tumor cells; method: high-content nuclear imaging; refers to: cell number; concentration: 10 µM; time: 12 h; setting: mean of 2 replicates; relative to: plate mean; direction: higher = more cells
Compound	nuclei count
N#Cc1c(-c2ccccc2)cc(-c2cc(Br)ccc2O)[nH]c1=O	1.38 z-score
N#Cc1ccc(NC(=O)Nc2ccccc2Br)c2n[nH]nc12	-1.34 z-score
C[C@@H]1CN(c2c(F)c(N)c3c(=O)c(C(=O)O)cn(C4CC4)c3c2F)C[C@H](C)N1	0.803 z-score
COc1cc(OC)c(C(=O)CCCCN2CCC3(CC2)NC(=O)NC3=O)cc1NS(=O)(=O)c1ccc(C(F)(F)F)cc1	1.4 z-score
O=C(NCc1ccccn1)Nc1nnc(-c2ccco2)o1	0.69 z-score
O=C(Nc1ccc(C(F)(F)F)cn1)N1CCN(c2ncccc2C(F)(F)F)CC1	2.74 z-score
COc1cc([S+](C)[O-])ccc1-c1nc2cccnc2[nH]1 (centres unmarked)	1.86 z-score
c1ccc(Cn2c(NCc3ccco3)nc3ccccc32)cc1	0.776 z-score
OCc1cc(C(O)CNCCCCCCOCCCCc2ccccc2)ccc1O (centres unmarked)	0.978 z-score

Series 4 — observed: enzyme activity; action: inhibitor; concentration: 0.5 µM; relative to: control
Target: Cyclin-dependent kinase 1, with cyclin B (CDK1, Homo sapiens, UniProt P06493)
Chain of UniProt P06493 (whole entry, looked up): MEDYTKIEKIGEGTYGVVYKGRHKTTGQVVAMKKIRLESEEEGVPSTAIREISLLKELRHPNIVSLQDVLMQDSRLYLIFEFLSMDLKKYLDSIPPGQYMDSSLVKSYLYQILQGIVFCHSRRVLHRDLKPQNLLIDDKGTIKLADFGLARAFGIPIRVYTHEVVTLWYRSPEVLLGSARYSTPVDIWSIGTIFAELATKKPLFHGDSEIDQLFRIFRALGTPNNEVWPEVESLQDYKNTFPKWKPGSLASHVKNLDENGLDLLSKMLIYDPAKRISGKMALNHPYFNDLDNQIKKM
SMILES	remaining activity [%]
O=c1c2ccccc2[nH]c(=S)n1CCN1CCC(=C(c2ccc(F)cc2)c2ccc(F)cc2)CC1	83
Cc1ccc(NC(=O)c2ccc(CN3CCN(C)CC3)cc2)cc1Nc1nc(-c2cccnc2)cs1	97.6
O=C1NC(=O)C(c2cn(CCCO)c3ncccc23)=C1c1cnccn1	81.1
CN(C)c1ccc(C=C2C(=O)Nc3ccccc32)cc1	94.1
OCC(O)CCON=C1C(c2c(O)[nH]c3ccccc23)=Nc2ccccc21 (centres unmarked)	33.4
COc1cc2nccc(Oc3ccc(NC(=S)NC(=O)c4ccccc4C)cc3)c2cc1OC	90.7
Nc1ccc2ncnc(NCCc3ccc(Oc4ccccc4)cc3)c2c1	96.3
COc1cc2ncnc(Nc3ccc(F)c(Cl)c3)c2cc1OCCCN1CCOCC1	99.1
COc1ccc(C(=O)Nc2sc3c(c2C(N)=O)CCCC3)cc1OC	94.3
COc1ccc(CNC(=O)Nc2ncc([N+](=O)[O-])s2)cc1	85.1
O=C1NC(=O)C(c2cn(CCCn3ccnc3)c3ccccc23)=C1Nc1ccccc1	84.9
COc1cc2ncnc(Nc3ccc(Oc4ccccc4)cc3)c2cc1OC	81.2
Nc1[nH]nc2nc3ccccc3nc12	79.6
NCCNc1ncc(C(N)=O)c(Nc2cccc(C(F)(F)F)c2)n1	81.7
Cc1nc(-c2ccccc2)c(-c2ccncc2)o1	90.8
Cc1cccc(-c2[nH]c(C(C)(C)C)nc2-c2ccc3c(c2)OCO3)n1	100
Nc1ncnc2n[nH]c(Nc3ccc(F)cc3)c12	90.7
C#Cc1cccc(Nc2ncnc3cc(OCCOC)c(OCCOC)cc23)c1	97.2
Cn1c2ccccc2c2c3c(c4c5ccccc5n(CCC#N)c4c21)CNC3=O	38.7
O=C(O)c1ccc2c3c1cccc3c(=O)n1c3ccccc3nc21	65
CNC(=O)c1cc(Oc2ccc(NC(=O)Nc3ccc(Cl)c(C(F)(F)F)c3)cc2)ccn1	98.5

Series 5 — species: mouse; sample: microsomes or S9; concentration: 2 µM; time: 0.5 h
SMILES	remaining compound [%]
CC(C)n1nc(CNc2ccc(Cl)cc2)[nH]c1=O	90.6
Nc1cc(-c2ccc(Br)cc2)nn1CC1CCCCC1	34.9
CCc1noc(CC)c1CC(=O)NCC1(CC)CCCCC1	0.037
Nc1nnc2sc3cc(Br)ccc3n12	0
O=C(Nc1nncn1-c1ccccc1)c1cnc2ccccn12	29.3
c1ccc2c(-c3noc4c3CNCC4)cccc2c1	4.91

For quick reference, copied from above (series 5):
SMILES	remaining compound [%]
c1ccc2c(-c3noc4c3CNCC4)cccc2c1	4.91
Nc1nnc2sc3cc(Br)ccc3n12	0
O=C(Nc1nncn1-c1ccccc1)c1cnc2ccccn12	29.3
CCc1noc(CC)c1CC(=O)NCC1(CC)CCCCC1	0.037
Nc1cc(-c2ccc(Br)cc2)nn1CC1CCCCC1	34.9
CC(C)n1nc(CNc2ccc(Cl)cc2)[nH]c1=O	90.6
